Published values from different studies.
Every numbered part comes from another study and shows a few of its results, in no order.

Sample 1 — technique: protein binding microarray; molecule type: double-stranded DNA, one strand shown; sample: in vitro; tested at: not given; baseline: not given; direction: higher = stronger binding
Target: Histone acetyltransferase KAT6A, winged helix 2, GST fusion (KAT6A, Homo sapiens, UniProt Q92794, residues 85-181)
Notes: 8-mer, flanks averaged, mean of 2 arrays, mostly near background
Construct (chain): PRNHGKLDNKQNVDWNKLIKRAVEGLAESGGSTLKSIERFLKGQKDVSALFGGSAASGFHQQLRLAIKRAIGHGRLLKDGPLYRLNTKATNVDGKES
Strand | E-score
AACGGTCT | -0.216
AGGCTCCA | -0.0645
GATGCAGC | -0.053
AGGACCAT | -0.17
CGGACGGC | 0.203
GGTCAGCA | -0.00362
AGGGGCGA | -0.05
GGGGCAAA | -0.0664
AAGAGCGT | -0.11
ATGAGGAC | -0.146
ATGTCAAA | -0.0329
CCAGGGAA | -0.0464
CAGACGCC | -0.0459
CTCGCACA | 0.0178
GGCCCCAA | 0.0509
TCTCGTAA | -0.113
GTGTATAA | -0.111
CATGGGGG | -0.00614
ACAATAAG | -0.181

Sample 2 — technique: RNA Bind-n-Seq; molecule type: RNA; sample: in vitro; tested at: not given; baseline: input RNA pool; direction: higher = stronger binding
Target: RING finger protein unkempt homolog, zinc fingers 1-6, GST-SBP tag (UNK, Homo sapiens, UniProt Q9C0B0, residues 30-357)
Notes: RNA with constant flanks, human-mouse chimeric sites, ends assumed
Constant ends, left off below: GGGAGUUCUACAGUCCGACGAUC … CAACAGAGGAUUGAGCAUCA
Residues (chain): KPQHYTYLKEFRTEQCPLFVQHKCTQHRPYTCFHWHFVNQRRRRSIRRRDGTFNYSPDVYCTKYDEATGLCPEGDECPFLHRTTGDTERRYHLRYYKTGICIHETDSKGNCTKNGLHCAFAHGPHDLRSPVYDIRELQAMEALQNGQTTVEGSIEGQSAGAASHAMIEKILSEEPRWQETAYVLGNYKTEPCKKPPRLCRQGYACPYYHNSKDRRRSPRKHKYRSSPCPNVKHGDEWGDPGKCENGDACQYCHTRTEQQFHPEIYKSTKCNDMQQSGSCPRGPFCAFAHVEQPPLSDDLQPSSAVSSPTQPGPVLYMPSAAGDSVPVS
Strand | bound/input enrichment [ratio]
AGAAUCUUGGGACUGUUUUACUUAAUUGGUCAUUGAUAGCUUAACAAACAUGGAGAUGAGAUUAGAAAUCUUGACAUCAACAGGUAUUAAGCAGAAAAAACCAUGGCCACGUGUCUCCUG | 0.143
CUGUGACCACAAGAUCCUACCUGAGUGGCAGCUGAAGCACUUUUCUUCUCCUUGCCUGAACCCCCCCCCACUGCCCCCCCAUCCCCCAGUGUCGGCUAUUCUCUGGUCUCUGCACGGUUC | 0.642
GCUCCUCUUCCGCACUCAGCCUGGGGACACUGGGCUGGGACCAGAAUCCAGCUUUCUUUUAAAACUCUCAGUGUAACUUCUUUUUCUGACAUUUCAUUUUUUUUAAAUAGUGUAUUUUUU | 4.24
GCAAAGGAUGAUGAGGCGGCAGCUGUUGCCCUUUCCUCUCUCGUUCAUGCUUUGGAUGAGUUAAACAUGGUCGCCAUAGUUCGAUAUGCUUAUGACAAAAGAUCUAAUCCUCAAGUUGGU | 0.834
AACGUGGAGUUGAGUUCGCUGGCCCGGCUUCCCAGCUUGAAUAAACUCCGGAAGUUGGAGCUUAGUGACAAUAUAAUUUCUGGAGGCUUGGAAGUCCUGGCAGAGAAAUGUCCAAAUCUU | 0.202
GCUCUUGGGAAUGUAAUCAGCGCCUUGGGGGACAAGAGCAAGAGAGCCACCCAUGUCCCUUACAGAGACUCUAAGCUAACAAGACUAUUGCAGGAUUCCCUUGGGGGUAAUAGCCAAACC | 0.246
AAAGAGUGGAUAGAGUGUGCACACGGGAUCGGUGGGACCCGGGCGAAGAAAGAGUGCAAGAUAGAGUUCGAUGACUUCGAAGAGUGCUUGCUUCGGCACAAAACGAUGAGGCGAAUGCAU | 0.284
ACUCAGAGAUCCACCUCAAUUGAAGUGGGGAGUAAAGUCUGAUAUUACACACCUAACUUGAUGGAUAUAUAUUUUUUUUAAUAUGAAUCUUCCUGUUCGUCCAGGGAAGAAAGAUUUGUU | 0.609
CAGCCUCAGAGCCCAGACUUCCUGGACAUUACCAACCCUAAAGCGGUAUUAGAAAAUGCAUUGAGAAACUUCGCCUGUCUGACGACUGGAGAUGUGAUUGCUAUCAACUAUAAUGAAAAG | 0.479
UGACAAGGGCACUGCAGAGCCAUGCCUUUCCUUGACAUACAGAAAAAGCUGGGCAUCAGCCUGGACCGAUGGUUGACGUUCCUAAGCGGUGAACAGCCCUAUAAGAACGCCGCUCGGUGC | 0.0816
UAAAUUAGGGCUGCCGUUUUCUGUUUCUCCCUGGGCUGCAGACAGCUAGAAGAUUUUAUCUAGCUUAUACAAGGCUGCUGGUGUUCCCUCUUUUUUUCCACGAGGGUGUUUUUGGCUGCA | 0.783

Sample 3 — technique: RNA Bind-n-Seq; molecule type: RNA; sample: in vitro; tested at: 365 nM; baseline: no-protein control; direction: higher = stronger binding
Target: RNA binding protein fox-1 homolog 2, RRM domain, GST-SBP tag (RBFOX2, Homo sapiens, UniProt O43251-10, residues 100-194)
Notes: natural RNA segment, single round, ends assumed
Constant ends, left off below: GGGAGUUCUACAGUCCGACGAUC … UGGAAUUCUCGGGUGCCAA
Residues (chain): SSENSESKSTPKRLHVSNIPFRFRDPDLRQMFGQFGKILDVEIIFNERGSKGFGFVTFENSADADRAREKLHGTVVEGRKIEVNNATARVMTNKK
Strand | RBNS enrichment (R)
GCAUUUGAGUACCUACUGUGAGCAGGCAUUGGGGCGGAGCAGCGAGAGCCCUGCCGAUGUUGGGUUCUCCUCCUAUUGGGGAAACUUGAUCACAGAUGGAACACGUGCAG | 0.683
UAGUUGCAGUCACUUCAGGUCUCUCCCUCGGGUUCCCUUAGGAUGCAAGCACAAGAACAGACACCUGGUCAGCAUGGUGCUGAAACCCCUUUCUCUUCACUGUCAUGGUG | 4.78
CAUACAUUGUACUGAUCAAGUUAUACACCCAGGGGUAUAUACACUUUCUUCAUGUUUCUUCUUUGUAUAUUUGGUGACUGUAUCGUCAUAGAUGUACAUAUUGUGUCGGU | 0.375
CAUUAGACCCGUGUGCGCUGCUAAGGCCAUGGUAACCCUCUGGGGACAGGCAGCCAUUGAUGGGAGCAAAGCUUGCAGGUGCCUGGAGGUGGUCCCACCAUUGCCUGCAG | 1.77
UUAGUGUUUUGACUUUUCUUACCCAGCGUUAAUUGAAUUCUUGCUUUUAGACAACUUCCUUUUUGUAGUGGUGAACCUUGCCCUUUAGUACAGUUCAAGUGAAUCUGGAU | 0.394
ACGCCUAUUUUCACCAUUCUCAGGCAAAUACUCCAUGGCUGUAGUUUGACGGACUGUUCCAAUCUGCCUUAUGAAAUCCAACAAGAAUGUUAGUGGCAUCUCUGUGGUCC | 1.46
UAUAAAAACAUGUGCUAAAGCUCUGUCCUCUGUUAGAGGUGCCUUUUAGGAAUACGGGGAGUGAAGGAAGGCCGGCAGGCAUCUCCAUGCAACUAGAUGGUUUGUUUGUU | 0.598
AGCUAGGCCCGUGUGGUUAGAUCAGCUUUGUUACUGAAUUACCUAAAACCAGACCACAGCACAGCCAGGGAGCCCAGUAGUGUUUCCAAGAACAGUGUGGAGCUUGAGAA | 0.256
UCGCGGUUGUCACCCGGGCUGGAGUGCAGUGGCGUGAUCUCGGCUCACUGCAACUUCCACCUCCUGGGUUCCAGCAGUUCUCCUGCCUCAGCCUCCCAAGUAGCUGAGAU | 0.236
AACAUAUGUAUUUGUAAAAAUGGUUUCCUGUGUCAAGUAUUUGUGCAGUCAGAGCUGACUUGUAAACUAUUCUUGUAAUAGCUCAUUAUUUUGAAAGAUUUAUAUAUGAU | 0.362
CAGUAGUGUCCAGCCAGAGCUGCGGCUCCAGCCACCCUUCCUAGGGUGGCAUUCAGGGCAGCACCCAGGGUAGGGAACUUGGGGGCAAGGGGAGGCAGGCUGGGUGUUCC | 0.614
GAUAUAUAUGUAUAUAUAUUUAAAUACACAUAUAUAUUGUACAGAAUAAAAAAUGUUUUAUUGGACACUCUGCUUAUUCUUAAGACACAGGUUCAACCUUCAAGACUAGA | 0.574

Sample 4 — technique: RNA Bind-n-Seq; molecule type: RNA; sample: in vitro; tested at: 200 nM; notes: whole 134-nt RNA, ends assumed; added: 150 mM LiCl; baseline: input library; direction: higher = stronger binding; each molecule: 7-deaza-guanosine replaces G
Target: Fragile X messenger ribonucleoprotein 1, C-terminal low-complexity region (Fmr1, Mus musculus, UniProt P35922)
Constant ends, left off below: GGGAGUUCUACAGUCCGACGAUC … UGGAAUUCUCGGGUGUCAAGG
Strand | log2 enrichment
ACCAUGCAGGUGGGCAUCUUUGGGGAGUGGGGCAAGGGGGGGAUAGGGAGGGGGGUAACACUUUGGGAACAGGUGGUCCCAGGUCGUUUC | 1.35
CAAGUCCUGUGCUACACAUCGUAUGUACCGAAUCGGGAAAAAAAGGGUGGGAGGGAAAGUAUUAUGUUACGCCGUUCGGAUCUGCACUUC | -0.41
AGUCCUGUGCUACACAUCGUAUGUACCGAAUCGGAAAAAAAGGUUUGGUUUUUUUGGAAAGUAUUAUGUUACGCCGUUCGGAUCUGCACU | -3.42
UAACUUUAAAGGAGGAUCUGAUGGAUAUGGCAGUGGACGUGGAUUUGGGGAUGGCUAUAAUGGGUAUGGAGGAGGACCUGGAGGUGGCAA | 0.54
AAGUCCUGUGCUACACAUCGUAUGUACCGAAUCGGGCCCCGGGGCCCCGGCCCCGGAAAGUAUUAUGUUACGCCGUUCGGAUCUGCACUU | -1.85
CCUGUGCUACACAUCGUAUGUACCGAAUCGGGGUUUUUUGGUUUUUUGGGGUUUUUUGGGAAAGUAUUAUGUUACGCCGUUCGGAUCUGC | -1.42
CAAGUCCUGUGCUACACAUCGUAUGUACCGAAUCGGAAAAGGAAAAGGGAAAAGGAAAGUAUUAUGUUACGCCGUUCGGAUCUGCACUUC | -0.701
AAGUCCUGUGCUACACAUCGUAUGUACCGAAUCGGGGAGGGGUGGGGAAAAAGGGGAAAGUAUUAUGUUACGCCGUUCGGAUCUGCACUU | -0.1
CCUGUGCUACACAUCGUAUGUACCGAAUCAAACCCCCCCAAAUUUUUUUAAAUUUUUAAAAAAGUAUUAUGUUACGCCGUUCGGAUCUGC | 1.63
UGGGAGGUGGAUUUUGUUUAUUUUUUUAGCUCAUUUCCAGGGGUGGGAAUUUUUUUUUAAUAUGUGACAUGAAUAAAGUUGUUUUUGAAA | -0.246
AGUCCUGUGCUACACAUCGUAUGUACCGAAUCGGGGAGGGGAAAAAAAGGGGAGGGGAAAGUAUUAUGUUACGCCGUUCGGAUCUGCACU | 0.0411

Repeated from above (sample 1):
Strand | E-score
CAGACGCC | -0.0459
CCAGGGAA | -0.0464
GGCCCCAA | 0.0509
AGGCTCCA | -0.0645
AGGGGCGA | -0.05
ACAATAAG | -0.181
TCTCGTAA | -0.113
